Experimental data gathered from unrelated publications.
Protocols differ between the studies behind these lines. ± gives the spread as reported.
Organism: SARS-CoV-2

Structure (SMILES) | test | system | setting | scale | measurement | result
O=C(O)C(O)=CC(=O)c1ccc(O)c(O)c1 | viral replication | VeroE6 | 50 µM | – | inhibition | 0%
COc1ccc(S(=O)(=O)Nc2cccc(C(=O)NC3CCN(c4ncnc5[nH]cnc45)CC3)c2)cc1 | – | Wuhan-Hu-1 | 7.407 µM | relative to: untreated infected cells | relative infection | 39.7%
N#Cc1ccccc1C[C@@H](N)C(=O)N[C@H](Cc1ccc(Cl)cc1Cl)C(=O)N[C@H](CC(=O)NCCCS(N)(=O)=O)Cc1ccc(F)cc1 | viral replication | USA-WA1/2020 | – | – | EC50 | 7 µM
CC[C@H](C)[C@H](NC(=O)[C@H](C)NC(=O)[C@H](CCC(=O)O)NC(=O)[C@H](CCC(=O)O)NC(=O)[C@H](CC(C)C)NC(=O)[C@H](CCCCN)NC(=O)[C@H](CCCCN)NC(=O)[C@H](CCSC)NC(=O)[C@H](CCC(=O)O)NC(=O)[C@H](Cc1ccc(O)cc1)NC(=O)[C@H](CCC(=O)O)NC(=O)[C@H](CC(C)C)NC(=O)[C@H](CC(=O)O)NC(=O)[C@H](CC(C)C)NC(=O)[C@H](Cc1ccccc1)NC(=O)[C@@H](NC(=O)[C@@H](NC(=O)[C@H](CC(N)=O)NC(=O)[C@@H](NC(=O)[C@H](CCC(N)=O)NC(=O)[C@H](CC(=O)O)NC(=O)[C@H](CC(C)C)NC(=O)[C@@H](N)CO)[C@@H](C)CC)C(C)C)[C@@H](C)O)C(=O)N[C@@H](CCCCN)C(=O)N[C@@H](CCCCN)C(=O)N[C@@H](CC(C)C)C(=O)N[C@@H](CCC(=O)O)C(=O)N[C@@H](CCC(=O)O)C(=O)N[C@H](C(=O)N[C@@H](Cc1ccc(O)cc1)C(=O)N[C@H](C(=O)N[C@@H](CC(=O)O)C(=O)N[C@@H](CC(C)C)C(=O)N[C@@H](CCCCN)C(=O)N[C@@H](CCC(=O)O)C(=O)N[C@@H](CC(C)C)C(=O)O)[C@@H](C)CC)[C@@H](C)O | pseudovirus infection, inhibitor, luciferase | Caco-2, D614G pseudovirus | 24 h | – | IC50 | 0.892 µM
O=C(NC1CCN(c2ncnc3[nH]cnc23)CC1)c1cccc(S(=O)(=O)Nc2ccc(Cl)cc2)c1 | – | Wuhan-Hu-1 | 200 µM | relative to: untreated infected cells | relative infection | 17.6%
CC[C@H](C)[C@H](NC(=O)[C@H](C)NC(=O)[C@H](CCC(=O)O)NC(=O)[C@H](CCC(=O)O)NC(=O)[C@H](CC(C)C)NC(=O)[C@H](CCCCN)NC(=O)[C@H](CCCCN)NC(=O)[C@H](CCSC)NC(=O)[C@H](CCC(=O)O)NC(=O)[C@H](Cc1ccc(O)cc1)NC(=O)[C@H](CCC(=O)O)NC(=O)[C@H](CC(C)C)NC(=O)[C@H](CC(=O)O)NC(=O)[C@H](CC(C)C)NC(=O)[C@H](Cc1ccccc1)NC(=O)[C@H](Cc1ccccc1)NC(=O)[C@@H](NC(=O)[C@H](CC(N)=O)NC(=O)[C@@H](NC(=O)[C@H](CCC(N)=O)NC(=O)[C@H](CC(=O)O)NC(=O)[C@H](CC(C)C)NC(=O)[C@@H](N)CO)[C@@H](C)CC)C(C)C)C(=O)N[C@@H](CCCCN)C(=O)N[C@@H](CCCCN)C(=O)N[C@@H](CC(C)C)C(=O)N[C@@H](CCC(=O)O)C(=O)N[C@@H](CCC(=O)O)C(=O)N[C@@H](C)C(=O)N[C@@H](Cc1ccc(O)cc1)C(=O)N[C@H](C(=O)N[C@@H](CC(=O)O)C(=O)N[C@@H](CC(C)C)C(=O)N[C@@H](CCCCN)C(=O)N[C@@H](CCC(=O)O)C(=O)N[C@@H](CC(C)C)C(=O)O)[C@@H](C)CC | pseudovirus infection, inhibitor, luciferase | Caco-2, D614G pseudovirus | 24 h, dual mutations | – | IC50 | 0.14 µM
O=C(NC1CCN(c2ncnc3[nH]cnc23)CC1)c1cccc(NS(=O)(=O)c2ccc(Cl)cc2)c1 | – | Wuhan-Hu-1 | 0.01016 µM | relative to: untreated infected cells | relative infection | 84.4%
O=C(O)C(O)=CC(=O)c1cc(Oc2ccccc2)cc(Oc2ccccc2)c1 | viral replication | VeroE6-TMPRSS2 | – | – | EC50 | 26 ± 1.7 µM
CC[C@H](C)[C@H](NC(=O)[C@H](C)NC(=O)[C@H](CCC(=O)O)NC(=O)[C@H](CCC(=O)O)NC(=O)[C@H](CC(C)C)NC(=O)[C@H](CCCCN)NC(=O)[C@H](CCCCN)NC(=O)[C@H](CCSC)NC(=O)[C@H](CCC(=O)O)NC(=O)[C@H](Cc1ccc(O)cc1)NC(=O)[C@H](CCC(=O)O)NC(=O)[C@H](CC(C)C)NC(=O)[C@H](CC(=O)O)NC(=O)[C@H](CC(C)C)NC(=O)[C@H](Cc1ccccc1)NC(=O)[C@H](Cc1ccc(O)cc1)NC(=O)[C@@H](NC(=O)[C@H](CC(N)=O)NC(=O)[C@@H](NC(=O)[C@H](CCC(N)=O)NC(=O)[C@H](CC(=O)O)NC(=O)[C@H](CC(C)C)NC(=O)[C@@H](N)CO)[C@@H](C)CC)C(C)C)C(=O)N[C@@H](CCCCN)C(=O)N[C@@H](CCCCN)C(=O)N[C@@H](CC(C)C)C(=O)N[C@@H](CCC(=O)O)C(=O)N[C@@H](CCC(=O)O)C(=O)N[C@H](C(=O)N[C@@H](Cc1ccc(O)cc1)C(=O)N[C@H](C(=O)N[C@@H](CC(=O)O)C(=O)N[C@@H](CC(C)C)C(=O)N[C@@H](CCCCN)C(=O)N[C@@H](CCC(=O)O)C(=O)N[C@@H](CC(C)C)C(=O)O)[C@@H](C)CC)[C@@H](C)O | pseudovirus infection, inhibitor, luciferase | Caco-2, D614G pseudovirus | 24 h, dual mutations | – | IC50 | 0.366 µM
Cc1ccc(S(=O)(=O)Nc2cccc(C(=O)NC3CCN(c4ncnc5[nH]cnc45)CC3)c2)cc1Cl | – | Wuhan-Hu-1 | 2.469 µM | relative to: untreated infected cells | relative infection | 51.5%
CC[C@H](C)[C@H](NC(=O)[C@H](C)NC(=O)[C@H](CCC(=O)O)NC(=O)[C@H](CCC(=O)O)NC(=O)[C@H](CC(C)C)NC(=O)[C@H](CCCCN)NC(=O)[C@H](CCCCN)NC(=O)[C@H](CCSC)NC(=O)[C@H](CCC(=O)O)NC(=O)[C@H](Cc1ccc(O)cc1)NC(=O)[C@H](CCC(=O)O)NC(=O)[C@H](CC(C)C)NC(=O)[C@H](CC(=O)O)NC(=O)[C@H](CC(C)C)NC(=O)[C@H](Cc1ccccc1)NC(=O)[C@H](Cc1ccccc1)NC(=O)[C@@H](NC(=O)[C@H](CC(N)=O)NC(=O)[C@@H](NC(=O)[C@H](CCC(N)=O)NC(=O)[C@H](CC(=O)O)NC(=O)[C@H](CC(C)C)NC(=O)[C@@H](N)CO)[C@@H](C)CC)C(C)C)C(=O)N[C@@H](CCCCN)C(=O)N[C@@H](CCCCN)C(=O)N[C@@H](CC(C)C)C(=O)N[C@@H](CCC(=O)O)C(=O)N[C@@H](CCC(=O)O)C(=O)N[C@H](C(=O)N[C@@H](Cc1ccc(O)cc1)C(=O)N[C@H](C(=O)N[C@@H](CC(=O)O)C(=O)N[C@@H](CC(C)C)C(=O)N[C@@H](CCCCN)C(=O)N[C@@H](CCC(=O)O)C(=O)N[C@@H](CC(C)C)C(=O)O)[C@@H](C)CC)[C@@H](C)O | pseudovirus infection, inhibitor, luciferase | Caco-2, D614G pseudovirus | 24 h, dual mutations | – | IC50 | 0.185 µM
CN(C)CCCCNC(=O)C[C@H](Cc1ccc(F)cc1)NC(=O)[C@@H](Cc1ccc(Cl)cc1Cl)NC(=O)[C@H](O)Cc1ccccc1C#N | viral replication | USA-WA1/2020 | – | – | EC50 | 0.7 µM
O=C(NCc1ccc(F)cc1)C1C(=O)N(O)C(=O)c2cc([N+](=O)[O-])ccc21 (stereo not shown) | viral replication | VeroE6-TMPRSS2 | – | – | EC50 | > 50 µM
CC[C@H](C)[C@H](NC(=O)[C@H](C)NC(=O)[C@H](CCC(=O)O)NC(=O)[C@H](CCC(=O)O)NC(=O)[C@H](CC(C)C)NC(=O)[C@H](CCCCN)NC(=O)[C@H](CCCCN)NC(=O)[C@H](CCSC)NC(=O)[C@H](CCC(=O)O)NC(=O)[C@H](Cc1ccc(O)cc1)NC(=O)[C@H](CCC(=O)O)NC(=O)[C@H](CC(C)C)NC(=O)[C@H](CC(=O)O)NC(=O)[C@H](CC(C)C)NC(=O)[C@H](Cc1ccccc1)NC(=O)[C@@H](NC(=O)[C@@H](NC(=O)[C@H](CC(N)=O)NC(=O)[C@@H](NC(=O)[C@H](CCC(N)=O)NC(=O)[C@H](CC(=O)O)NC(=O)[C@H](CC(C)C)NC(=O)[C@@H](N)CO)[C@@H](C)CC)C(C)C)[C@@H](C)O)C(=O)N[C@@H](CCCCN)C(=O)N[C@@H](CCCCN)C(=O)N[C@@H](CC(C)C)C(=O)N[C@@H](CCC(=O)O)C(=O)N[C@@H](CCC(=O)O)C(=O)N[C@@H](C)C(=O)N[C@@H](Cc1ccc(O)cc1)C(=O)N[C@H](C(=O)N[C@@H](CC(=O)O)C(=O)N[C@@H](CC(C)C)C(=O)N[C@@H](CCCCN)C(=O)N[C@@H](CCC(=O)O)C(=O)N[C@@H](CC(C)C)C(=O)O)[C@@H](C)CC | pseudovirus infection, inhibitor, luciferase | Caco-2, D614G pseudovirus | 24 h | – | IC50 | 0.26 µM
NS(=O)(=O)c1ccc(-c2cn(-c3ccc(C(=O)C=C(O)C(=O)O)cc3)nn2)cc1 | viral replication | VeroE6-TMPRSS2 | – | – | EC50 | 23 ± 3.7 µM
N#CCNC(=O)C[C@H](Cc1ccc(F)cc1)NC(=O)[C@@H](Cc1ccc(Cl)cc1Cl)NC(=O)[C@H](N)Cc1ccccc1C#N | viral replication | USA-WA1/2020 | – | – | EC50 | > 10 µM
O=C(O)C(O)=CC(=O)C1(Cc2ccc(Cl)cc2)CCN(C(=O)OCc2ccccc2)CC1 | viral replication | VeroE6-TMPRSS2 | – | – | EC50 | 19 ± 3.7 µM
Cc1ccccc1S(=O)(=O)Nc1cccc(C(=O)NC2CCN(c3ncnc4[nH]cnc34)CC2)c1 | viral infection | Wuhan-Hu-1 | – | – | IC50 | 2.41 µM
O=C(O)C(O)=CC(=O)C1(Cc2ccc(Cl)cc2)CCN(Cc2ccc3ccccc3c2)CC1 | viral replication | VeroE6-TMPRSS2 | – | – | EC50 | 38 ± 3 µM
Nc1ccc([As]2SCC(C(=O)O)CS2)cc1 (stereo not shown) | pseudovirus entry, spike-pseudotyped lentivector | A549 expressing ACE2 and TMPRSS2 | 1 h pretreatment | – | IC50 | ~10 µM
O=C(NC1CCN(c2ncnc3[nH]cnc23)CC1)c1cccc(NS(=O)(=O)c2ccc([N+](=O)[O-])cc2)c1 | viral infection | Wuhan-Hu-1 | – | – | IC50 | 1.03 µM
CC(C)(C)c1ccc(-c2cn(-c3ccc(C(=O)C=C(O)C(=O)O)cc3)nn2)cc1 | viral replication | VeroE6 | 50 µM | – | inhibition | 64%
